Assay results of several laboratories.
Every numbered part comes from another study and shows a few of its results, in no order.

Block 1
Target: Histone acetyltransferase KAT6A, winged helix 2, GST fusion (KAT6A, Homo sapiens, UniProt Q92794, residues 85-181)
Technique: protein binding microarray
Form: double-stranded DNA, one strand shown
Medium: in vitro
Concentration: not given
Notes: 8-mer, flanks averaged, mean of 2 arrays, mostly near background
Relative to: not given
Direction: higher = stronger binding
Endpoint: E-score
Target sequence (chain): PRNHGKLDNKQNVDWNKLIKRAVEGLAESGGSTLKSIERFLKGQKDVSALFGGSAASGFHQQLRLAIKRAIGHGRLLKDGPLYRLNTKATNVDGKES
ATTCCATG: -0.16
AATAGGCC: -0.0847
ACGAGTCT: -0.185
CCACGAGG: 0.109

Block 2
Target: Centromere-binding protein 1, full length, His-tagged (CBF1, Saccharomyces cerevisiae, UniProt P17106, residues 1-351)
Sequence of UniProt P17106 (whole entry, looked up): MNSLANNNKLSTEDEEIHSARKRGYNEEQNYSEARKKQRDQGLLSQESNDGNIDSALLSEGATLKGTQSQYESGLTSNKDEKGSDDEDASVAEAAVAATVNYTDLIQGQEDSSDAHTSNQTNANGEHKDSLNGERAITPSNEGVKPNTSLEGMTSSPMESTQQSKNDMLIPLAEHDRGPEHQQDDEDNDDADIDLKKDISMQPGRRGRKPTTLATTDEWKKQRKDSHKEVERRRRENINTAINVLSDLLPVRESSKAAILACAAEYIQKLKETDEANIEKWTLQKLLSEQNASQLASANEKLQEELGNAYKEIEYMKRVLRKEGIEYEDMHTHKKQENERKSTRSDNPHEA
Technique: competition protein-binding microarray
Form: double-stranded DNA, one strand shown
Medium: in vitro
Concentration: 2 µM
Notes: whole 60-bp probe, lowest competitor level
Added: Pho4 competitor, 0.05 µM
Direction: higher = stronger binding
Endpoint: fluorescence intensity
Constant ends, left off below: … GTCTTGATTCGCTTGACGCTGCTG
GTCTTGTCTCATTGTCACTGGACTTTCCCCACTTCA: 83.8 a.u.
TCGTATACTTTATGTCTCGTGGGTATAAAAAGCCAA: 204 a.u.
GCATATTGAAACCATCACGGGAACGAGAAGAATGGC: 316 a.u.
CATACCCAACCTTGGTCCGTGGGTGAAGATATTTGT: 59.9 a.u.
CGACAAGCCGCTATTAGCGTGGGTACTGACATCAGG: 59.3 a.u.

Block 3
Target: Interferon regulatory factor 7, full length, phosphomimetic (IRF7, Homo sapiens, UniProt Q92985, residues 1-503, S101K/S471D/S472D/S475D/S476D/S477D/S483D/S484D/S487D)
Sequence of UniProt Q92985 (whole entry, unmodified, looked up): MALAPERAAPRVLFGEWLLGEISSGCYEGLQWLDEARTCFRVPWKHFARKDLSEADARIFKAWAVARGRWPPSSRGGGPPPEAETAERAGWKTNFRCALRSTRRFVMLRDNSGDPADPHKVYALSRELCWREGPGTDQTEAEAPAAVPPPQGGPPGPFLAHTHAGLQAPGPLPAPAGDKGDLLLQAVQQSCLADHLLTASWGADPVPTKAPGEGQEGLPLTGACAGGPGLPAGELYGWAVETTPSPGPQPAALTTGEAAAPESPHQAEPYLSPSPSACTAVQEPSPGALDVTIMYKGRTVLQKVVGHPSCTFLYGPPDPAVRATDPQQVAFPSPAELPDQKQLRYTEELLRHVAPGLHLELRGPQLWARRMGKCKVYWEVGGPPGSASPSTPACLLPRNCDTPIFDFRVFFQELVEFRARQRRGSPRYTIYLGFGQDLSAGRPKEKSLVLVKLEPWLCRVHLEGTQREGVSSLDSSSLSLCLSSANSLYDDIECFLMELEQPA
Technique: protein-binding microarray
Form: double-stranded DNA, one strand shown
Medium: in vitro
Concentration: 250 nM
Notes: 60-bp whole probe
Added: salmon DNA 0.4 mg/ml
Relative to: random background probes
Direction: higher = stronger binding
Endpoint: log fluorescence
GCCTAGCACGACGGTTTCGACACTGCGGACGTGCTAGTCTTGATTCGCTTGACGCTGCTG: 4.02 z-score
GCCTAGCACGACGGTCTCCTACTGCTGACGTGCTAGGTCTTGATTCGCTTGACGCTGCTG: -0.373 z-score
GCCTAGCACTTAGGTTTCCTACTGTTTTAGTGCTAGGTCTTGATTCGCTTGACGCTGCTG: 1.49 z-score
GCCTAGCACTTAGGTTTCCTTCTCCTTGAGTGCTAGGTCTTGATTCGCTTGACGCTGCTG: 2.66 z-score

Other studies, line by line
PhoQ, residues 284 288 289 292 302 303 SSTLSG
fold induction (PhoP, residues 12 14 15 18 19 YHFSH (Escherichia coli, UniProt P23836); Sort-seq, item: YFP reporter; E. coli; PhoQ-PhoP variant library, added: 10 µM Mg2+; relative to: high Mg2+ state, higher = stronger signaling): 3.89

Repeated from above (other studies, line by line):
PhoQ, residues 284 288 289 292 302 303 SSTLSG
fold induction (PhoP, residues 12 14 15 18 19 YHFSH (Escherichia coli, UniProt P23836); Sort-seq, item: YFP reporter; E. coli; PhoQ-PhoP variant library, added: 10 µM Mg2+; relative to: high Mg2+ state, higher = stronger signaling): 3.89
